Values quoted from earlier work, collected from citations in different studies.
Lines come from different studies, so protocols differ. ± marks the error that the study gave.
B1: Skp2 1–88; sequence looked up; chain MHRKHLQEIPDLSSNVATSFTWGWDSSKTSELLSGMGVSALEKEEPDSENIPQELLSNLGHPESPPRKRLKSKGSDKDFVIVRRPKLN

Substance = CC(C)[C@@H]1NC(=O)C(C)(C)NC(=O)c2csc(n2)CNC(=O)C[C@@H](/C=C/CCS)OC1=O; target = HDAC11; assay = enzyme activity, inhibitor, cell-free; IC50 = 0.0023 µM
Substance = B1 (Skp2 1–88); target = CDK2-cyclin A (human); assay = Rb phosphorylation, inhibitor; setting = added: Rb; IC50 = 0.18 µM
Substance = C[n+]1cn([C@@H]2O[C@H](COP(=O)(O)O)[C@@H](O)[C@H]2O)c2nc(N)[nH]c(=O)c21; target = Caenorhabditis elegans decapping scavenger DcpS; assay = hydrolytic activity, inhibitor; IC50 = 2.5 µM
Substance = CN([C@@H](Cc1ccc(OS(=O)(=O)c2cccc3cnccc23)cc1)C(=O)N1CCN(c2ccccc2)CC1)S(=O)(=O)c1cccc2cnccc12; target = CaMKII; assay = inhibitor; IC50 = > 2 µM
Substance = CNC(=O)[C@@H](NC(=O)[C@H](CCCc1ccccc1)[C@H](C)N(O)C=O)C(C)(C)C; target = recombinant ADAM10; assay = enzyme activity, inhibitor; IC50 = 0.0053 µM
Substance = C1=C/COCc2cc(ccc2OCCN2CCCC2)Nc2nccc(n2)-c2cccc(c2)COC/1; target = CSF1R human; assay = phosphorylation, inhibitor; system = macrophages, CLL patients; IC50 = < 1 µM
Substance = Oc1cccc(-c2nc(N3CCOCC3)c3oc4ncccc4c3n2)c1; target = ATM; assay = kinase activity, inhibitor; setting = added: 10 µM ATP; IC50 = 0.92 µM
Substance = [Co+2]; target = voltage-gated calcium channels; assay = barium current, blocker; IC50 = 65 µM
Substance = COc1ccc2c(c1OC)N=C(NC(=O)c1cccnc1)N1CCN=C21; target = PI4KIIα; assay = enzyme activity, inhibitor; setting = added: 10 µM ATP; IC50 = > 100 µM
Substance = CN1CC(=O)N2[C@H](c3ccc4c(c3)OCO4)c3[nH]c4ccccc4c3C[C@@H]2C1=O; target = PDE3; assay = inhibitor; IC50 = > 10 µM
Substance = O=c1cc(-c2ccc(O)c(-c3c(O)cc(O)c4c(=O)cc(-c5ccc(O)cc5)oc34)c2)oc2cc(O)cc(O)c12; target = amyloid beta 1-40; assay = fibrillization; IC50 = ~5 µM
Substance = Brc1ccc(CN2CCC(CCOC(c3ccccc3)c3ccccc3)CC2)cc1; target = serotonin transporter; assay = reuptake, inhibitor; IC50 = 2.57 ± 0.179 µM
Substance = CCNC(=O)NC1CCCCC1; target = human soluble epoxide hydrolase; assay = inhibitor; setting = added: PHOME substrate; IC50 = 7.5 ± 0.13 µM
Substance = CCCC(CCC)C(=O)O; target = non-class I HDACs; IC50 = > 2000 µM
Substance = CC1(C)CCC(C)(C)c2cc(C3(c4ccc(C(=O)O)cc4)OCCO3)ccc21; target = CYP26A1; assay = enzyme activity, inhibitor; setting = added: 9-cis-retinoic acid; IC50 = 3.3 µM
Substance = Cn1cc(-c2ccc3c(c2)ncn3-c2cc(NS(=O)(=O)C3CC3)cc(-c3ccc(F)cc3F)c2)cn1; target = RET kinase; assay = enzyme activity, inhibitor; IC50 = < 0.1 µM
Substance = CC(C)C[C@H](NC(=O)[C@@H](CC(=O)NO)Cc1ccccc1)C(=O)O; target = neprilysin; assay = inhibitor; setting = range reported for several peptidases; IC50 = 0.03 to 0.06 µM
Substance = COc1ccc2c(c1)c(CC(=O)O)c(C)n2C(=O)c1ccc(Cl)cc1; target = PTGR2; assay = enzyme activity, inhibitor; IC50 = ~200 µM
Substance = Cc1ccc([N+](=O)[O-])cc1S(=O)(=O)N(C)/N=C/c1cnc2ccc(Br)cn12; target = PI4KIIα; assay = enzyme activity, inhibitor; setting = added: 10 µM ATP; IC50 = > 100 µM
Substance = CN1CCN(c2ccc(Nc3ncc4cc5n(c4n3)C3(CCCCC3)CNC5=O)nc2)CC1; target = OCT1; assay = transport, inhibitor; IC50 = 0.604 µM
Substance = C=CCn1c(=O)c2cnc(Nc3ccc(N4CCN(C)CC4)cc3)nc2n1-c1cccc(C(C)(C)O)n1; target = CDK1 phosphorylation; setting = derived from non-clinical data; IC50 = 0.24 µM
Substance = Cc1cc([C@H](C)Nc2ccccc2)c2oc(N3CCOCC3)cc(=O)c2c1; target = PI4KIIα; assay = enzyme activity, inhibitor; setting = added: 10 µM ATP; IC50 = > 100 µM
Substance = CC(C)[C@H]1c2ccc(F)cc2CC[C@@]1(CCN(C)CCCc1nc2ccccc2[nH]1)OC(=O)C1CC1; target = T-type calcium channel; assay = inhibitor; system = HEK293; IC50 = 6.8 µM
Substance = CC(C)(O)CC(=O)NCCn1ccc2ncnc(Nc3ccc(Oc4cccc(C(F)(F)F)c4)c(Cl)c3)c21; target = HER2, human; assay = kinase activity, inhibitor, cell-based; IC50 = 9.3 ng/mL
Substance = N=C(N)SCCc1ccc(OCc2ccc([N+](=O)[O-])cc2)cc1; target = Na+/Ca2+ exchanger reverse mode; assay = inhibitor; system = hippocampal neurons; IC50 = 5.7 ± 2.1 µM
Substance = O=P(O)(O)C(O)(Cc1cccc(-c2cccc3c2oc2ccccc23)c1)P(=O)(O)O; target = undecaprenyl pyrophosphate synthase; assay = enzyme activity, inhibitor; IC50 = ~0.25 µM
Substance = CNC(=O)[C@H](Cc1c[nH]c2ccccc12)NC(=O)[C@@H](CC(=O)NO)CC(C)C; target = recombinant ADAM10; assay = enzyme activity, inhibitor; IC50 = 0.0081 to 0.11 µM
Substance = CCCC(CCC)C(=O)O; target = HDAC6; assay = inhibitor; IC50 = > 20000 µM
Substance = CC1(C)CCC(C)(C)c2cc(NC(=O)c3ccc(C(=O)O)cc3)ccc21; target = CYP26A1; assay = enzyme activity, inhibitor; setting = added: 9-cis-retinoic acid; IC50 = 12 ± 3.98 µM
Substance = YIRLHF; target = angiotensin-converting enzyme; assay = enzyme activity, inhibitor; system = peptide; IC50 = 122 µM
Substance = C=C(NC(=O)C(=C)NC(=O)c1csc(C2=N[C@@H]3c4csc(n4)[C@H]4NC(=O)c5csc(n5)[C@H]([C@](C)(O)[C@@H](C)O)NC(=O)[C@H]5CSC(=N5)/C(=C/C)NC(=O)[C@H]([C@@H](C)O)NC(=O)c5csc(n5)[C@]3(CC2)NC(=O)[C@H](C)NC(=O)C(=C)NC(=O)[C@H](C)NC(=O)[C@H]([C@@H](C)CC)N[C@@H]2C=Cc3c([C@H](C)O)cc(nc3[C@H]2O)C(=O)O[C@@H]4C)n1)C(N)=O; target = FOXM1, full length; assay = DNA binding, inhibitor; IC50 = 42.6 ± 1.4 µM
Substance = CC(C)C[C@H](CC(=O)NO)C(=O)N[C@H](C(=O)N[C@@H](C)C(=O)NCCN)C(C)(C)C; target = recombinant ADAM12; assay = inhibitor; IC50 = > 100 µM
Substance = Cc1cc(C(C)Nc2ccccc2)c2oc(-c3ccncc3)cc(=O)c2c1 (stereo not shown); target = ATR; assay = kinase activity, inhibitor; setting = added: 10 µM ATP; IC50 = > 100 µM
Substance = NC[C@@H]1O[C@H](O[C@H]2[C@@H](O)[C@H](O[C@@H]3[C@@H](O)[C@H](N)C[C@H](N)[C@H]3O[C@H]3O[C@H](CO)[C@@H](O)[C@H](O)[C@H]3N)O[C@@H]2CO)[C@H](N)[C@@H](O)[C@@H]1O; target = rabbit ribosome; assay = translation, inhibitor, measured: firefly luciferase; system = rabbit reticulocyte lysate; IC50 = 57 ± 4 µM
Substance = C[C@@H](NCCN(C)C)[C@@H]1CC[C@@H]2[C@H]3CCc4cc(O)ccc4[C@@H]3CC[C@]21C; target = CatSper, human; assay = alkalization/depolarization-induced activation, inhibitor; system = human sperm; IC50 = 1.2 µM
Substance = CCN(CCO)CCCC(C)Nc1ccnc2cc(Cl)ccc12 (stereo not shown); target = IK1 channel; assay = ion current, inhibitor; system = CHO cells; setting = room temperature; IC50 = 44.1 µM
Substance = Cc1cc(O)c2c(c1)C(=O)c1cc(O)cc(O)c1C2=O; target = trypsin; assay = enzyme activity, inhibitor; setting = range of inhibitory concentrations; IC50 = 50 to 100 µM

For quick reference, copied from above:
Substance = B1 (Skp2 1–88); target = CDK2-cyclin A (human); assay = Rb phosphorylation, inhibitor; setting = added: Rb; IC50 = 0.18 µM
Substance = C[n+]1cn([C@@H]2O[C@H](COP(=O)(O)O)[C@@H](O)[C@H]2O)c2nc(N)[nH]c(=O)c21; target = Caenorhabditis elegans decapping scavenger DcpS; assay = hydrolytic activity, inhibitor; IC50 = 2.5 µM
Substance = CN([C@@H](Cc1ccc(OS(=O)(=O)c2cccc3cnccc23)cc1)C(=O)N1CCN(c2ccccc2)CC1)S(=O)(=O)c1cccc2cnccc12; target = CaMKII; assay = inhibitor; IC50 = > 2 µM
